Experimental data collected from several papers.
A part holds a random share of what one study measured. Positions count from the first letter of the parent shown.

Set 1
Target: Histone acetyltransferase KAT6A, both winged helices, GST fusion (KAT6A, Homo sapiens, UniProt Q92794, residues 1-181)
Method: protein binding microarray
Form: double-stranded DNA, one strand shown
Sample: in vitro
Tested at: not given
Setting: 8-mer, flanks averaged, mean of 2 arrays, mostly near background
Reference: not given
Reading: higher = stronger binding
Endpoint: E-score
Construct (chain): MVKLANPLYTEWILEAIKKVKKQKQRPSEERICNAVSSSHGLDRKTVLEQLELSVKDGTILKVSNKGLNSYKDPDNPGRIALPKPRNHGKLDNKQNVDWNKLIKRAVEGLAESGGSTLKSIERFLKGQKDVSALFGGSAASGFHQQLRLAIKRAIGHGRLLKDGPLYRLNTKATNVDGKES
GACTATAA: -0.126
ATGCTTTG: -0.0611
CGAGTTTC: 0.0182
AGCGGCAC: 0.249
CTACTAAC: -0.13
AGGTGTGC: -0.134
AGGGAGGA: -0.245
ATTCCCGA: 0.0637

Set 2
Target: RNA binding protein fox-1 homolog 2, RRM domain, GST-SBP tag (RBFOX2, Homo sapiens, UniProt O43251-10, residues 100-194)
Method: RNA Bind-n-Seq
Form: RNA
Sample: in vitro
Tested at: 365 nM
Setting: natural RNA segment, single round, ends assumed
Reference: no-protein control
Reading: higher = stronger binding
Endpoint: RBNS enrichment (R)
Constant ends, left off below: GGGAGUUCUACAGUCCGACGAUC … UGGAAUUCUCGGGUGCCAA
Residues (chain): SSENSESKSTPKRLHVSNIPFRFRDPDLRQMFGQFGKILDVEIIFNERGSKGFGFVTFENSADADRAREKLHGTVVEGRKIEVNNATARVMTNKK
GAAUGAGGUAGGGAGCCUCUCUCCCCCAGUGGCCAUGUUUACAAAAGUGUGUUUUGUCUAUAAAGUGCAAGUGUUUUAAUGUUUAUGUAAAUUAUGCAGGUGAUAACAUG: 1.08
UCUAGUCUUACAGCUGAAAAUUGACCUCUGCCUUCCCCCAUCCCUUACUUUUUUUAGAUCCCUGUCUCCAGAAUCUCCCCGAUGCUGUUUUCUACAUCACAGGUCUCUCC: 0.527
AGACAUUAAUCUGCAACAGGUCUUGUUCAUACUCAUAAAGUGUACCGUAUUAAGAAAUCAGAACAGUGCCUUAAGACAGACUGAGACGUCGUGAAAAAUGUGUUCACACU: 0.326
GUUUCUCUGGAGAUUCCUGCAACCUCAAGAGACUUCCCAGGCGCUCAGGCCUGGAUCUUGCUCCUCUGUGAGGAACAAGGGUGCCUAAUAAAUACAUUUCUGCUUUAUUA: 0.2
AGGAACACUUGCUCUUUGAGCCCCGUGACCGACAGUGACCAGGGAUUGGCAUUCUUGGAUUGGCAUGCUUUCCAUUGUUACUUUGUCUAUUUUGGUAAGAAAAACAUCAA: 1.47
AAAGGCAGUCUCUGUGUCUGGAGCUUCAAAGAGACAGGCAGACCUGCACUAAUUCCCUUCUUCCUCUAGCAGACUGCCUUGGGAAGGACCUUCAGUCCAGGACAGACCCU: 0.181
CUGCACUGCCCUAGCAGAGGUUCUCUCCCCUGCCGCUGAGAGGGCCUCUCCCCUGCAGCAAACGUUUGCCUGGGCAUUGAGGCAUUUCCAUACAUCUUCUGAAAACUAGG: 0.561
AUUGUUUACUGGUUAUCUCUAUUUAAGGAAAAAAAAUAAAAUAAAACAUUUUGGAUUUUCAUAUGUGUCUGAUAAGUGGUUGUAUAGUCGUUUGGCGCUGUUGUAUGGUG: 1.06
CCCACAAAAGACUCAACAAAAUUAGACCACAAAAUUUGCAUUGUUCAUUGUAGCACUAUUGGUAAUAAAAGAACAGAUGUUUGUGCAUUUUUAUGUGAAGAUCCUUCUCG: 0.795

Set 3
Target: CEBPE, bZIP domain (human)
Method: DHFR protein complementation
Sample: yeast
Setting: single substitutions, most at no-binding floor
Reference: wild-type JUN-FOS pair
Reading: higher = stronger binding
Endpoint: binding fitness
Starting sequence: JUN, bZIP domain (human); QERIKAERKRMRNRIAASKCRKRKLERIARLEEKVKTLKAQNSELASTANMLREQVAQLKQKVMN; partner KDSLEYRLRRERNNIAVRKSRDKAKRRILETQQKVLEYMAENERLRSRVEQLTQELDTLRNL
Q41T: -1.3 natural log
A49W: -1.33 natural log
A40Q: -0.919 natural log
E32W: -1.5 natural log

Other studies, line by line
PhoQ, residues 284 288 289 292 302 303 AGGCYF  fold induction (PhoP, residues 12 14 15 18 19 AWHSL (Escherichia coli, UniProt P23836); Sort-seq, item: YFP reporter; E. coli; PhoQ-PhoP variant library, with: 10 µM Mg2+; reference: high Mg2+ state, higher = stronger signaling): 4.18

Repeated from above (set 2):
AGACAUUAAUCUGCAACAGGUCUUGUUCAUACUCAUAAAGUGUACCGUAUUAAGAAAUCAGAACAGUGCCUUAAGACAGACUGAGACGUCGUGAAAAAUGUGUUCACACU: 0.326
